Assay results collected from several papers.
Numbered parts are unrelated; each lists some results of a single study.

Sample 1
Target: Centromere-binding protein 1, full length, His-tagged (CBF1, Saccharomyces cerevisiae, UniProt P17106, residues 1-351)
Chain of UniProt P17106 (whole entry, looked up): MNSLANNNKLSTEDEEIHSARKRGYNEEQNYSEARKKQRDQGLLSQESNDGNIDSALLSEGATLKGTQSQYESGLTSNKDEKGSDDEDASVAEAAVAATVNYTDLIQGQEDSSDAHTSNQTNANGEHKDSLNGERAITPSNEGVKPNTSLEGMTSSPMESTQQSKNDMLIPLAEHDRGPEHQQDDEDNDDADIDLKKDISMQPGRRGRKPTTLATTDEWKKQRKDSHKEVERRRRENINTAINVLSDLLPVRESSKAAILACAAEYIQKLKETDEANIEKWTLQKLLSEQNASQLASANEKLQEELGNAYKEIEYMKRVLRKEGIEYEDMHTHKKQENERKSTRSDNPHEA
Technique: competition protein-binding microarray
Molecule type: double-stranded DNA, one strand shown
Matrix: in vitro
Tested at: 2 µM
Setting: whole 60-bp probe, lowest competitor level
With: Pho4 competitor, 0.05 µM
Reading: higher = stronger binding
Measurement: fluorescence intensity
TGCGCAACAACTTGTGTGGTGGGTGTATGTCTAGAAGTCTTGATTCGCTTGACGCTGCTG: 70.7 a.u.
CGTCCTAGTGATTGTCACATAACTTCCATGAGGAAGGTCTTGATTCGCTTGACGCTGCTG: 104 a.u.
CTAACGAAGGTTTTTCACGTGGCGTACAAGCCAAGTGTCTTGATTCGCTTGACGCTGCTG: 579 a.u.
GTTTCAGAAAATCCATGTCATTAAAGAGCTTTATCAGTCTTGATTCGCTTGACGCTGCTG: 67.7 a.u.
ATATTTCCACTTACCCATGTGTTTATAATCGCGGGAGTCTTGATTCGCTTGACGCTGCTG: 124 a.u.
CTAACGAAGGTTTTTCACGTGCCTTACAAGCCAAGTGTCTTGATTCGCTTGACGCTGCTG: 1280 a.u.
GAAGGAGTGCGGGACCCCGTGGGTACCGCATCCCTTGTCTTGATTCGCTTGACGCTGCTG: 85.1 a.u.
AAGGTTGTTAACTTCCACGTTCAGGTTATTCACTACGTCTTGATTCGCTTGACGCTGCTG: 79.9 a.u.

Sample 2
Target: Prothrombin, mature alpha-thrombin (F2, Homo sapiens, UniProt P00734)
Technique: aptamer microarray, sandwich
Molecule type: DNA with 2'F-ANA
Matrix: in vitro
Tested at: 200 nM
Setting: whole 15-mer aptamer, many near background
With: Cy3 exosite-II aptamer, 400 nM
Reading: higher = stronger binding
Measurement: mean fluorescence intensity
Strand: GGTTGGTGTGGTTGG
2'F-ANA at 1 2 3 4 5 6 7 8 12 13: 90.6 a.u.
2'F-ANA at 2 3 7 8 10 14: 341 a.u.
2'F-ANA at 10 13: 177 a.u.
2'F-ANA at 2 6 8 9 10 11 14 15: 80 a.u.
2'F-ANA at 1 3 5 9 10 13 14 15: 48.4 a.u.
2'F-ANA at 1 2 4 5 6 9 12 13 14: 55.4 a.u.

Sample 3
Target: Interferon regulatory factor 7, full length, phosphomimetic (IRF7, Homo sapiens, UniProt Q92985, residues 1-503, S101K/S471D/S472D/S475D/S476D/S477D/S483D/S484D/S487D)
Technique: protein-binding microarray
Molecule type: double-stranded DNA, one strand shown
Matrix: in vitro
Tested at: 250 nM
Setting: 60-bp whole probe
With: salmon DNA 0.4 mg/ml
Relative to: random background probes
Reading: higher = stronger binding
Measurement: log fluorescence
Residues (chain): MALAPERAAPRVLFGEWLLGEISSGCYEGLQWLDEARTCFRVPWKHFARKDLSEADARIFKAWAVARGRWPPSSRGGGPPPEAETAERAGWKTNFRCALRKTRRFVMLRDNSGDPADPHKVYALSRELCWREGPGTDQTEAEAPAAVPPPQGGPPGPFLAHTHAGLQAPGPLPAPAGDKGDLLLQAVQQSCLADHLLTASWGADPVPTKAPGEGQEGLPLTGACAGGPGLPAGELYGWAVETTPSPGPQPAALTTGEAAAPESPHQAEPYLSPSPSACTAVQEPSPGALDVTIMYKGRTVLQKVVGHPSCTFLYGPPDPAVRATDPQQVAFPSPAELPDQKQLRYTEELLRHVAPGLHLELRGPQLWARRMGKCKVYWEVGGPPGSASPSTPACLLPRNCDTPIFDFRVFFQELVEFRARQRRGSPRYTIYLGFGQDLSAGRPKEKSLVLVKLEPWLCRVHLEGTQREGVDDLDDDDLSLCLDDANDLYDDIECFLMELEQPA
GCCTAGCACTCAACTTTCCAATTGTCACTGTGCTAGGTCTTGATTCGCTTGACGCTGCTG: 1.84 z-score
GCCTAGCACTTAGCTTTCAGACTGGATTAGTGCTAGGTCTTGATTCGCTTGACGCTGCTG: -0.405 z-score
GCCTAGCACAAAGATATAAATGTAACATGGTGCTAGGTCTTGATTCGCTTGACGCTGCTG: 0.0173 z-score
GCCTAGCACGACGATCTGAGTATCGAGACGTGCTAGGTCTTGATTCGCTTGACGCTGCTG: 0.105 z-score

Other studies, line by line
PhoQ, residues 284 288 289 292 302 303 HSYLQF  fold induction (PhoP, residues 12 14 15 18 19 NQCAL (Escherichia coli, UniProt P23836); Sort-seq, refers to: YFP reporter; E. coli; PhoQ-PhoP variant library, with: 10 µM Mg2+; relative to: high Mg2+ state, higher = stronger signaling): 5.34
